Experimental data pooled from the literature.
Every numbered part comes from another study and shows a few of its results, in no order. Substitutions count along the parent as printed.

Study 1
Target: RNA binding protein fox-1 homolog 2, RRM domain, GST-SBP tag (RBFOX2, Homo sapiens, UniProt O43251-10, residues 100-194)
Method: RNA Bind-n-Seq
Form: RNA
Matrix: in vitro
Tested at: 365 nM
Notes: natural RNA segment, single round, ends assumed
Reference: no-protein control
Reading: higher = stronger binding
Quantity: RBNS enrichment (R)
Target sequence (chain): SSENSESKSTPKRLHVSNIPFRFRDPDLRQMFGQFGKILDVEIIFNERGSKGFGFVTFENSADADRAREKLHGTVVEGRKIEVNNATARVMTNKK
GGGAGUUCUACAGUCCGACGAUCUCCCCAUCUCAGGGUCAGACCAGCCUUCUCUCUUUACCUUCUUUAACCUGUCUCCCCUCCCUGGUUGGUUGAGUUGAAGAAGAAGAAAGAAAGCUGAGGAGAGGGGGAAGUGGAAUUCUCGGGUGCCAA: 0.347
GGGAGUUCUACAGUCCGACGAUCUUGGCAGUCAGGGGGGUGUCAUACAUGAUUCUUGCCUUUUCCUUUGCUUGAUGUCUAUACUGGAUCCCCAUGGUGGAGUAGGACUCUCUGUGGAGCCUCUGGCAUAAGAGUGGAAUUCUCGGGUGCCAA: 1.22
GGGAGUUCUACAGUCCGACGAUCCUUACAUGUAAACUUGCGUGUUUGUGAAAAUGGCCCUUUAAGUAUAUUUAAUUUUUUGCCACAUAUUUAUUUAAAGGCGAGCAAUAUUUUCUUGGUCACAAUAUUUUUUAUGGAAUUCUCGGGUGCCAA: 0.669
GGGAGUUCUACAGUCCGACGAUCAAAGUGCCAGAUGGAGUUUAAAUAUUGAAAUUAUUUUAAAAGGUAGGUGUCUUUAAGAAAAUAACAAGCAACCCUGUGAUAUGUUCCGUCUCUCCCAAUUCCCUCGUUAUUGGAAUUCUCGGGUGCCAA: 0.366
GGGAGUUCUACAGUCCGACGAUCAUGUUACUGCGUUCUGUGUCGGAAAGUAUAGUAUGCUCUAAGCAGUAGGCCUCUUGACUUUCUUACAUGACUUUCUGCUAAACUACUUUUCAUUUUAAGGGCACACGCAGUGGAAUUCUCGGGUGCCAA: 0.663
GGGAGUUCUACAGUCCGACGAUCCUUGGUUUAUCUGCACAGUACAAGCUGCUGGUAGACUACACUAGCCCUCUGGUUUCCCAGCGCAGCCUCUCAUACAGUGGACUGACAGCCUGCACUCUGUUUAGUCAGCCUGGAAUUCUCGGGUGCCAA: 0.394
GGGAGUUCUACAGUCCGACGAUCUGAAGUUCUCAAGUUCACCCGUUAGGGAAAAGUUAUUUUGUUUACAUUAUUAUAAGGGAUUUGUUAUGUCUGUAAAGUGUAACCUAGGAAGGAUCAUCAACCAUCUAAUCUGGAAUUCUCGGGUGCCAA: 0.267
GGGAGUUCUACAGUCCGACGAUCUGCUGGUUCCAUGCCUGCUCUCGAGGCAGCAGUGGGUUCAGGCCCAUCAGCUACCCCUGCAGCUGGGGAAGACUUAUGCCAUCCCGGCAGCGAGGCUGGGCUGGCCAGCCUGGAAUUCUCGGGUGCCAA: 0.266

Study 2
Target: Phosphate system positive regulatory protein PHO4, full length, GST-tagged (PHO4, Saccharomyces cerevisiae, UniProt P07270, residues 1-312)
Method: competition protein-binding microarray
Form: double-stranded DNA, one strand shown
Matrix: in vitro
Tested at: 2 µM
Notes: whole 60-bp probe, lowest competitor level
With: Cbf1 competitor, 0.05 µM
Reading: higher = stronger binding
Quantity: fluorescence intensity
Target sequence (chain): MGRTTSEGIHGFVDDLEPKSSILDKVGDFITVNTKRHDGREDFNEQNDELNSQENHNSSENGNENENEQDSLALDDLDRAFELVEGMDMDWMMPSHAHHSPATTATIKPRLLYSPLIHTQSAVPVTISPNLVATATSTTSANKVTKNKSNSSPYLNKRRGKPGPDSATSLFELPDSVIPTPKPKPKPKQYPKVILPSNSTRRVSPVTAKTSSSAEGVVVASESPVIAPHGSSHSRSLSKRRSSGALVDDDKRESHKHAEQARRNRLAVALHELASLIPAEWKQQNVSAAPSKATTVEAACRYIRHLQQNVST
AGAAATGTTCTCCTCCACGTGGATTCGTACCGTTGTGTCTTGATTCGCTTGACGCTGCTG: 17200 a.u.
CTTTCCCGATCTTGGGTGGTGGGTGTAGCACATTTGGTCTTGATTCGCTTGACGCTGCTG: 5710 a.u.
CGTCCTAGTGATTGTATAGTGGGTGCCATGAGGAAGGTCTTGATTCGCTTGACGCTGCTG: 7010 a.u.
CTTAACAGCAACTTGAACGTGAAGATGAACTTTACTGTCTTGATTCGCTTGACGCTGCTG: 6980 a.u.
AAATTACTAAGTTGGCGAGTGGGTGACGCCGTATGAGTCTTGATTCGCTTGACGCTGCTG: 4040 a.u.
TGCTCGCAATGACAGCACGTGACGGAAAGTGAGAATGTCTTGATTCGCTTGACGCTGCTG: 18800 a.u.
ATGCGATTCGGCCATCACGGGAGAGTCGACTAGTTCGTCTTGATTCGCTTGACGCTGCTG: 4020 a.u.
ATGTCAATGGTACAGCACGTGGTAATTACAGCGGTGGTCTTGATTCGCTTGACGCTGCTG: 19100 a.u.

Study 3
Target: CCND2, cyclin fold, Cln2 fusion (human)
Method: yeast growth competition, sequencing
Matrix: yeast
Notes: weak parent motif
Reference: not given
Reading: higher = stronger binding
Quantity: normalised enrichment score
Parent: viral docking peptide; KKAKRRLFTISDS; partner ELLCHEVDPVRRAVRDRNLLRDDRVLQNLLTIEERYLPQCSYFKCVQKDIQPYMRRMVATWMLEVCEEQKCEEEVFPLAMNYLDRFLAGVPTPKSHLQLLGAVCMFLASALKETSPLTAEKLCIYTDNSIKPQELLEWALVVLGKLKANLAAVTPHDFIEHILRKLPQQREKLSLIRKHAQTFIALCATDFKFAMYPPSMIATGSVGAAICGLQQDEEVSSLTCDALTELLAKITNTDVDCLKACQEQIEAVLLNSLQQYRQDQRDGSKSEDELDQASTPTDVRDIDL
KKAKRRLLTISDS [F8L]: 0.32
KKAKRRLFAISDS [T9A]: 0.245
KKAARRLFTISDS [K4A]: -0.0516
KKAKRRAFTISDS [L7A]: -0.107
KAAKRRLFTISDS [K2A]: 0.0131
KKAKRRLATISDS [F8A]: 0.26
KKAKRRLFTIADS [S11A]: 0.524

Study 4
Target: Probable WRKY transcription factor 11, DNA-binding domain (WRKY11, Arabidopsis thaliana, UniProt Q9SV15, residues 228-325)
Method: DNA-protein interaction ELISA
Form: double-stranded DNA, one strand shown
Matrix: in vitro, bacterial lysate
Tested at: not given
Notes: whole dsDNA probe, crude lysate protein
Reference: highest signal in screen
Reading: higher = stronger binding
Quantity: relative absorbance
Target sequence (chain): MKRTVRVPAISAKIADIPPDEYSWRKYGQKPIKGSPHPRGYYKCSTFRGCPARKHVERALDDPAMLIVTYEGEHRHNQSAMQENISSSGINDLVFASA
AAAAAAGGCCTTCGCTCGTGTTTACGAAAA: 10.7 % of maximum
AAAAAAATCGTTGTTATCGTATTTATAAAA: 13.8 % of maximum
AAAAAAGCGCGCCCGCACTGTTAATAAAAA: 16.1 % of maximum
AAAAAATTTGCGCTTCATCCTGCCCCAAAA: 18.4 % of maximum
AAAAAAACTCACGGCGTCACTATGGTAAAA: 14.4 % of maximum
AAAAAAGTAGGTGCTGATGCTGGCCGAAAA: 16.7 % of maximum
AAAAAATCGTAAATGCCCATAGCCGTAAAA: 13.8 % of maximum
AAAAAACCGAGTGTTGCCAGTTGCAGAAAA: 17 % of maximum
